# Results collected from several papers.
# Each line is one published result; not all experiments were run side by side.
Compound,test,test system,setting,endpoint,value
FC(F)(F)c1ccc(CNc2ccc(Cc3c[nH]c4ncc(Cl)cc34)cn2)cn1,measured: hair colour changes,non-TGCT solid tumour patients,"oral, 1000 mg/day, grade 3 or higher",patients with treatment-related adverse event,0%
Cc1cc(NC2CCN(C(=O)OC3CCN(C(=O)/C=C/CN(C)C)C3)CC2)n2ncc(C(C)C)c2n1 (centres unmarked),"CTCAE v4.0, measured: Dyspepsia",patients with advanced solid tumours,"oral, dose not given, TIW, grade 3 or higher",patients with TEAE,0%
Cc1cc(-c2nnc(N)nc2-c2ccc(F)cc2)cc(Cl)n1,measured: Rash,IO-naive colorectal cancer patients,"oral, dose not given, treatment-related, grade 1",patients with immune-mediated AE,4%
C[C@@H](Nc1cc(F)cc(F)c1)c1cc(C(=O)N(C)C)cc2c(=O)cc(N3CCOCC3)oc12,"CTCAE v4, measured: pulmonary embolism",patients with advanced solid tumours,"oral, dose not given, phase I dose expansion",patients discontinuing for AE,0%
COc1cc(Nc2ncc3c(n2)-c2ccc(Cl)cc2C(c2c(F)cccc2OC)=NC3)ccc1C(=O)O,"measured: Pain, grade 1","cancer patients, phase 1/2","oral, dose not given, added: pembrolizumab",patients with adverse event,8%
COc1ccc([C@@H](O)c2cc(-c3ncnc4cc(N5CCOCC5)ccc34)c(F)cc2Cl)nn1,,locally advanced rectal cancer patients,"100 mg, drug-related adverse events, added: capecitabine and radiotherapy",patients with fatigue,67%
O=C(Nc1nc2cccc(-c3ccc(CN4CCS(=O)(=O)CC4)cc3)n2n1)C1CC1,,rheumatoid arthritis patients,"oral, 100 mg twice daily, 4 weeks, TEAE regardless of relatedness",patients with Erythema,0%
CNC(=O)c1ccc(-c2cnc3ncc(Cc4ccc5ncccc5c4)n3n2)cc1F,"measured: Asthenia, all grades",cancer patients,"oral, dose not given, dose escalation, any causality",patients with adverse event,18%

# Excerpt of the above:
Compound,test,test system,setting,endpoint,value
COc1ccc([C@@H](O)c2cc(-c3ncnc4cc(N5CCOCC5)ccc34)c(F)cc2Cl)nn1,,locally advanced rectal cancer patients,"100 mg, drug-related adverse events, added: capecitabine and radiotherapy",patients with fatigue,67%
